# Measurements collected from several papers.
# Lines come from different studies, so protocols differ. ± gives the spread as reported.
# 4'-phosphopantetheinyl transferase PptT: 4'-phosphopantetheinyl transferase PptT (Mycobacterium tuberculosis, UniProt O33336)
Structure (SMILES),tested on,assay,system,setting,scale,endpoint,value
Cc1nc(=O)c2cc(CN(C)c3ccc(C(=O)NCCCS(N)(=O)=O)s3)ccc2[nH]1,4'-phosphopantetheinyl transferase PptT,"enzyme activity, inhibitor, fluorescence polarization",,,,Hill slope,1
CCCCCn1cc(C(=O)c2ccc3ccccc3c2)c2ccccc21,"CNR2 (Homo sapiens, UniProt P34972, V261L)","Gαi1 engagement, agonist, BRET",,,relative to: wild type,change in Emax,~20%
O=S(=O)(O)CCOCC1CSSCC(COCCS(=O)(=O)O)SS1 (stereo not shown),"Response regulator PhoP (Mycobacterium tuberculosis, UniProt P71814)","binding, LSPR",,,,koff,0.077 ± 0.0031 s⁻¹
Cc1nc(=O)c2cc(CN(C)c3ccc(C(=O)N4CCc5ccc(C(=O)O)cc5C4)s3)ccc2[nH]1,4'-phosphopantetheinyl transferase PptT,"enzyme activity, inhibitor, fluorescence polarization",,,,Hill slope,1
CN1C(=O)[C@H](Cc2ccccc2)N(C)C(=O)[C@@H]2[C@H]1CCN2Cc1cc(Cl)cc(Cl)c1,"NKG2-D type II integral membrane protein, with MICA (KLRK1, Homo sapiens, UniProt P26718)",cellular TR-FRET binding,,,,ligand efficiency,0.23
CCCCCn1cc(C(=O)c2cccc3ccccc23)c2ccccc21,"CNR1 (Homo sapiens, UniProt P21554, I267L)","Gαi1 engagement, agonist, BRET",,,relative to: wild type,Emax decrease,~65%
O=P(O)(O)Oc1ccccc1,"Alkaline phosphatase PafA (pafA, Elizabethkingia meningoseptica, UniProt Q9KJX5, R164A)",,Chryseobacterium meningosepticum,pH 8.0,relative to: wild type over mutant kcat/KM,relative catalytic efficiency,83
CCCCCn1cc(C(=O)c2cccc3c2CC(C)(C)C3)c2ccccc21,"CNR1 (Homo sapiens, UniProt P21554, L193I)","Gαi1 engagement, agonist, BRET",,,relative to: reference agonist at wild-type CB1,Emax,83.6 ± 3%
Cc1nc(=O)c2cc(CN(C)c3ccc(C(=O)N[C@@H](CCC(=O)O)c4nnn[nH]4)s3)ccc2[nH]1,4'-phosphopantetheinyl transferase PptT,"enzyme activity, inhibitor, fluorescence polarization",,,,Hill slope,1.8
CC(C)C[C@H](NC(=O)[C@H](Cc1ccccc1)NC(=O)CNC(=O)CNC(=O)[C@@H](N)Cc1ccc(O)cc1)C(=O)O,,"K+ current, agonist, photo-uncaging",rat locus coeruleus neurons,"concentration not given, dendritic currents",,current amplitude,59.6 ± 4.3 pA

# Excerpt of the above:
Structure (SMILES),tested on,assay,system,setting,scale,endpoint,value
Cc1nc(=O)c2cc(CN(C)c3ccc(C(=O)NCCCS(N)(=O)=O)s3)ccc2[nH]1,4'-phosphopantetheinyl transferase PptT,"enzyme activity, inhibitor, fluorescence polarization",,,,Hill slope,1
